Published values collected from several papers.
Each numbered part is a random draw from the data of one study; scales do not carry over between parts. Changes are numbered by the printed parent chain.

Block 1
Target: RNA binding protein fox-1 homolog 2, RRM domain, GST-SBP tag (RBFOX2, Homo sapiens, UniProt O43251-10, residues 100-194)
Technique: RNA Bind-n-Seq
Molecule type: RNA
Matrix: in vitro
Concentration: 365 nM
Notes: natural RNA segment, single round, ends assumed
Reference: no-protein control
Direction: higher = stronger binding
Construct (chain): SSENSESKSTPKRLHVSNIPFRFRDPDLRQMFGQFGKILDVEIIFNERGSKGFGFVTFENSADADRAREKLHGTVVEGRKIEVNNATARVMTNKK
| Sequence | RBNS enrichment (R) |
| --- | --- |
| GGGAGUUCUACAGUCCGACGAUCAACUUGUACCACAAAACAAUAUCGCUUUAACUUUUCUAAAGCCAAAUUUCCCAUGUAAGCUGCAGUUUCUAUCUUUAGCCCAUCAUCAUUUUCUGCCCCCCCAAAAUCUGUGGAAUUCUCGGGUGCCAA | 0.614 |
| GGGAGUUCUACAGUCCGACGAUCGUUGUAGAAAGGAAAGUGGCCAGAAAGAACAACUUGGGACCAUGAGUAGGUCAUUAAAUAGCUUAGUGAUUUAUCCUCAUAUAGGGCUUAUAAACCCUGUAUGUGUUUAUUGGAAUUCUCGGGUGCCAA | 0.408 |
| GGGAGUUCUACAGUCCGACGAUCACACCUGGGCUCCUCACUGGGGGAAACAAAAGCCUAUAAACCCCAGCAACAAAACCUAGUCCUCUUAGACGUUCUUGCGCUUUGAUUUUUUUAGGGCGUGUGCCCUGUUAUGGAAUUCUCGGGUGCCAA | 0.476 |
| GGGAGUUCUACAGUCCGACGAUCGAUAGUCCCAAAGCAUGACCACAAAGUAGAGAGCACGUGGUUAGAAACCACUUCAUCAGAAUGUGUGAGUCCUGGGGAUGCAUGGGGCACAGUUGAUGCUGCUUGGGACAUGGAAUUCUCGGGUGCCAA | 19.3 |
| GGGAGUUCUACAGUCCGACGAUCCUUUUUCUGCCCAACAAGUCCAGGGAAGGCCGAGGUCUCAGACUCCUGGGUAGGGGUGGGGGUUUGAGUUGAGGACCAAAGUGCCAUAGCGACAUCCAGAACACAAGCCCUGGAAUUCUCGGGUGCCAA | 0.354 |
| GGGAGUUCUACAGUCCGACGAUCCAACAUACUCUUAAUGUUGAUUUUACAAUAUGAAGAGAUUAUUUAAAAUAAAUUAUUGUUUUCAUUGAGUGUGUGCUUUUUCCUUGGUGCCAGGGUUACCUCGGCUCGGAUGGAAUUCUCGGGUGCCAA | 0.408 |
| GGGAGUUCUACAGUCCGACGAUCCCCAGGGCUUUUGCUGACUCUGGGAAAGAGUCUGGAGACCACAUUUGGUUCUCGAACCAUCUACCUGCUUUUCCUCUCUCUCCCAAGGCCUGACAAUGGUACCUAUUAGGUGGAAUUCUCGGGUGCCAA | 0.269 |
| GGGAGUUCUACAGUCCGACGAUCGAUCUGGAGGAGGGCAGCGGAGCCUGCCUCGGUUCAGUGAUGGUUUUUCUUACCUGCUUCAAGCCGAGAUCUGAAAGCUUUGUGGAAGAUGAUCAAGCAAAGCUCCCAAGUGGAAUUCUCGGGUGCCAA | 0.396 |
| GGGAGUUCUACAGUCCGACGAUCUGAAUUUCUGCCAGGAUUGAAUUAUUUUGAAAUCUCCUGUCUUUUUAAACUUUUUCAAAAUAGGUCUCUAAGGAAAACCAGCAGAACAUUAGCCUGUGCAAAACCAUCUGUGGAAUUCUCGGGUGCCAA | 0.56 |

Block 2
Target: Sal-like protein 4, full length isoform A (SALL4, Homo sapiens, UniProt Q9UJQ4, residues 1-1053)
Chain of UniProt Q9UJQ4 (whole entry, looked up): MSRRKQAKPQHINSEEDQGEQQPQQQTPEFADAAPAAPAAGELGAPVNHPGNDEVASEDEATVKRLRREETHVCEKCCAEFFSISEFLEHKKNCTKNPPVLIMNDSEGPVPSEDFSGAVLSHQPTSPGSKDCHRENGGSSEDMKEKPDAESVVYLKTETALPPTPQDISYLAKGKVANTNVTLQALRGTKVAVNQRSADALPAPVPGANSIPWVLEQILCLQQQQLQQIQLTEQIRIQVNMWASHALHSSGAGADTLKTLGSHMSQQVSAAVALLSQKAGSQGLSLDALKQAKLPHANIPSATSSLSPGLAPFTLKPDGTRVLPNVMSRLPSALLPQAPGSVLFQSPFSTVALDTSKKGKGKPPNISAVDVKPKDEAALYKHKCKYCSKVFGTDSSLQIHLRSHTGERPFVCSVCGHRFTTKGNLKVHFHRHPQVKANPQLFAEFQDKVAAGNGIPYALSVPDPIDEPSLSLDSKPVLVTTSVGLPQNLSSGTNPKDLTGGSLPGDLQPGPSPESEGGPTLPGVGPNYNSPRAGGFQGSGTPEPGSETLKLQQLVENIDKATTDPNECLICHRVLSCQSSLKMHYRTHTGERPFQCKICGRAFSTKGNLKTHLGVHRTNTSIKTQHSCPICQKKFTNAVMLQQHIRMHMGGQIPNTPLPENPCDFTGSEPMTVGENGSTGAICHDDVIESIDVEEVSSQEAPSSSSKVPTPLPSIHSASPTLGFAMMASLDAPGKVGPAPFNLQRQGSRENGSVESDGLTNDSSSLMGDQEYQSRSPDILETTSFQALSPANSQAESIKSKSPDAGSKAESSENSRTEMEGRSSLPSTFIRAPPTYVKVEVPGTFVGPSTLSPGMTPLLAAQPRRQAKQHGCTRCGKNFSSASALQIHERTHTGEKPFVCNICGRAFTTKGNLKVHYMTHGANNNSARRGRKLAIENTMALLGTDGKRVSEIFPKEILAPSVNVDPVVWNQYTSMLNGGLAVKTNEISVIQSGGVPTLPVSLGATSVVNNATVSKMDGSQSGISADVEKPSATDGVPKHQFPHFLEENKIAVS
Technique: universal PBM
Molecule type: double-stranded DNA, one strand shown
Matrix: in vitro
Concentration: 600 nM
Notes: 8-mer, flanks averaged, mean of replicates
Direction: higher = stronger binding
| Sequence | E-score |
| --- | --- |
| GCAGGACC | -0.39 |
| AGCTGACG | -0.0968 |
| ATGTCTTA | 0.158 |
| AAGTATCT | 0.121 |
| TGATGGAA | 0.197 |
| CTGCCTAA | -0.125 |
| TATCGTCA | 0.134 |
| CACATTTC | 0.163 |
| ACAATCCT | 0.192 |
| CTGGTAAC | -0.0662 |
| CTAGCGTC | -0.18 |
| CCAATGAA | -0.0921 |
| AGGTCGCA | -0.0307 |
| ATTACGGG | -0.0598 |
| ATTAAGTG | 0.232 |
| TACTTCAA | 0.195 |

Block 3
Target: ABI1, truncated, D143A, DHFR fusion (Arabidopsis thaliana)
Technique: DHFR PCA, deep sequencing
Matrix: yeast
Notes: methotrexate growth selection, single substitutions
With: (+)-ABA 0 µM
Reference: wild-type fitted maximum
Direction: higher = stronger binding
Parent: PYL1, truncated, DHFR fusion (Arabidopsis thaliana); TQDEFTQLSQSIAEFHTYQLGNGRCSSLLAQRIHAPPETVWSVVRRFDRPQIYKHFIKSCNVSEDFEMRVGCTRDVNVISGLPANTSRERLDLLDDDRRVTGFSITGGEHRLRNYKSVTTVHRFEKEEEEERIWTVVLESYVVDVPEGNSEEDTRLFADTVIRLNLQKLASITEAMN
| Change | relative binding score [%] |
| --- | --- |
| K126L | 19.6 |
| T39I | 49.6 |
| L164W | 13.4 |
| C25L | 3.36 |
| L138W | 7.01 |
| D96T | -5.31 |
| E127P | 36.7 |
| T154F | -19 |
| N61F | 21.5 |

Block 4
Target: Ras GTPase-activating protein-binding protein 1, RRM domain (G3BP1, Homo sapiens, UniProt Q13283)
Chain of UniProt Q13283 (whole entry, looked up): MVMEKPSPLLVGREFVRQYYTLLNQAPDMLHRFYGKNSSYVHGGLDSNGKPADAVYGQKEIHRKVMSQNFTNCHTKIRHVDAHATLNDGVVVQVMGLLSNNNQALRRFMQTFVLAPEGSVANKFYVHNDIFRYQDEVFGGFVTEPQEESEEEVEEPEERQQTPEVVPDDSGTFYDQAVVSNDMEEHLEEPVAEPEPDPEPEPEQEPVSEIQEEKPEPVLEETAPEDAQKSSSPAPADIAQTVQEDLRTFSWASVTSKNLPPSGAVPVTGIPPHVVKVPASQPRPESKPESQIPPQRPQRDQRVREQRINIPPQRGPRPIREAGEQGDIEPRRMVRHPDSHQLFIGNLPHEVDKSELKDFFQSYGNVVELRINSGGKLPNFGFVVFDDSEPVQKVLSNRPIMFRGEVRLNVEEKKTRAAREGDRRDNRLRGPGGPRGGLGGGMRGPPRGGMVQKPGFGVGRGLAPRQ
Technique: RNA Bind-n-Seq
Molecule type: RNA
Matrix: in vitro
Concentration: 1 µM
Notes: whole 134-nt RNA, ends assumed
With: 150 mM KCl
Reference: input library
Direction: higher = stronger binding
| Sequence | log2 enrichment |
| --- | --- |
| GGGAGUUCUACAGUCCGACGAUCUGGGAGGUGGAUUUUGUUUAUUUUUUUAGCUCAUUUCCAGGGGUGGGAAUUUUUUUUUAAUAUGUGUCAUGAAUAAAGUUGUUUUUGAACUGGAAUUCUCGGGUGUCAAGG | 2.29 |
| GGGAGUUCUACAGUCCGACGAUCUGACCCUGGUGGCAUGCGGGGAGGAAGAGGUGGCCUCAUGGAUCGUGGUGGUCCCGGUGGAAUGUUCAGAGGUGGCCGUGGUGGAGACAGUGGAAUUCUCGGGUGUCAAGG | 0.635 |
| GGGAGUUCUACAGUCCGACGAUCGUCCUGUGCUACACAUCGUAUGUACCGAAUCGGUUUUUUGGUUUUUUGGGUUUUUUGGGAAAGUAUUAUGUUACGCCGUUCGGAUCUGCAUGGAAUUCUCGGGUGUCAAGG | -0.322 |
| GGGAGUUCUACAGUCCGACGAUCAAUGUGUCCUCCCUGUCCAAAUUGGGAAUGACUUAAUGUCAAUUUGUUUGUUGGUUGUUUUAAUAAUACUUCCUUAUGUAGCCAUUAAGAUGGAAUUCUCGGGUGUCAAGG | -0.191 |
| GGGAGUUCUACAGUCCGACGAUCCAAGUCCUGUGCUACACAUCGUAUGUACCGAAUCGGGAGGGUUUUUGGGUUUGGGAAAGUAUUAUGUUACGCCGUUCGGAUCUGCACUUCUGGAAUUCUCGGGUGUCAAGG | 0.539 |
| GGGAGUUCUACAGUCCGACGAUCCAAGUCCUGUGCUACACAUCGUAUGUACCGAAUCGGGGCCCGGGCCCGGCCCGGGGAAAGUAUUAUGUUACGCCGUUCGGAUCUGCACUUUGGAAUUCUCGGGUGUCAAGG | -0.982 |

Block 5
Target: CCNB3, cyclin fold, Cln2 fusion (human)
Technique: yeast growth competition, sequencing
Matrix: yeast
Notes: weak parent motif
Reference: not given
Direction: higher = stronger binding
Parent: CDC25A docking peptide (human); PPHRRRLLFACSP; partner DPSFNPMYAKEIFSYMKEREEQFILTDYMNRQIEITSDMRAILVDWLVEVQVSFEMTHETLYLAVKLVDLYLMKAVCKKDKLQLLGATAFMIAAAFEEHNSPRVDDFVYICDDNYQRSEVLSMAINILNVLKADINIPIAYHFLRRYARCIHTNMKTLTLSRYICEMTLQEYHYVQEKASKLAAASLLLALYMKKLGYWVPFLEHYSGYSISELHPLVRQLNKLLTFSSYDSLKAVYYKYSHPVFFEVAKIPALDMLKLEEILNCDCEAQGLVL
| Change | normalised enrichment score |
| --- | --- |
| P1D | 0.0651 |
| P1Q | 0.011 |
| F9H | 0.0458 |
| R5L | 0.521 |
| R6Y | -0.162 |
| A10C | -0.137 |
| C11S | 0.128 |
| L7M | 0.113 |
| L8H | -0.0408 |

Block 6
Target: Histone acetyltransferase KAT6A, winged helix 2, GST fusion (KAT6A, Homo sapiens, UniProt Q92794, residues 85-181)
Technique: protein binding microarray
Molecule type: double-stranded DNA, one strand shown
Matrix: in vitro
Concentration: not given
Notes: 8-mer, flanks averaged, mean of 2 arrays, mostly near background
Reference: not given
Direction: higher = stronger binding
Construct (chain): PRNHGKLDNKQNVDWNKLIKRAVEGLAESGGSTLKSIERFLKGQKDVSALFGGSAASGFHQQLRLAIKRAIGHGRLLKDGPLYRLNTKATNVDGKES
| Sequence | E-score |
| --- | --- |
| CTATTCGC | 0.0784 |
| CCGCGTGC | 0.101 |
| GACACGCA | 0.178 |
| TCCGCCCA | 0.107 |
| AACGTCGC | 0.0127 |
| GTTCCTGA | -0.0932 |
| CACAAACA | 0.0661 |
| CAGCCTCG | 0.0983 |
| AACAGGAA | 0.0373 |
| AACAGACC | 0.0119 |
| CTATTAAA | 0.0469 |
| ACATGTAC | -0.196 |
| TGACTGCA | -0.196 |
| GGGCTCAC | 0.0201 |
| AGCCGGCA | 0.164 |
| CCGCCAGC | 0.138 |
| AGTCACGG | 0.0299 |
| CAAACGAG | 0.066 |
| CAAACCTG | 0.0294 |
| CCCTTACA | -0.0131 |
| AAGTAAGG | -0.0659 |
| GAATGCTA | -0.0618 |
| GGAAGTAA | -0.0685 |
| GCGACCCA | 0.145 |
| TAACAAGA | -0.0212 |

Block 7
Target: Interferon regulatory factor 5, full length, phosphomimetic (IRF5, Homo sapiens, UniProt Q13568-2, residues 1-514, K96S/S451D/S453D/S456D/S462D)
Technique: protein-binding microarray
Molecule type: double-stranded DNA, one strand shown
Matrix: in vitro
Concentration: 250 nM
Notes: 60-bp whole probe
With: salmon DNA 0.4 mg/ml
Reference: random background probes
Direction: higher = stronger binding
Constant ends, left off below: GCCTAGCAC … GTCTTGATTCGCTTGACGCTGCTG
| Sequence | log fluorescence |
| --- | --- |
| TCATTTTTTTTTCTACTACTGTGCTAG | 1.66 z-score |
| GTCGATTTCGGGTATCGAGACGTGCTA | 6.42 z-score |
| TAAGGTTTCCAATCAGCCCCGTGCTAG | 0.0109 z-score |
| TTAGATATCAGTCTCGTTTAGTGCTAG | 1.58 z-score |
| TACGATTTCAGACTGGAGACGTGCTAG | 0.26 z-score |
| TCATAAAACAACTTTCAAACTGTGCTA | 1.38 z-score |
| GACGGTATCAGTATCGGGACGTGCTAG | 3.14 z-score |
| CACTTTCTTTAACTCATTCTGTGCTAG | 3.21 z-score |
| GACCATTTCAGTCTCGAGACGTGCTAG | 1.16 z-score |
| TTAGGTAGCCTACTGCTTTAGTGCTAG | -0.444 z-score |
